Measurements gathered from unrelated publications.
Compare with care: the assays were run in different laboratories. ± gives the spread as reported.

SMILES	target	assay	system	setting	IC50
C[C@H](N)C(=O)N[C@@H](C)C(=O)O	PepTSt Streptococcus thermophilus wild type	peptide uptake, competitor, proteoliposome uptake	–	–	30 ± 10 µM
CC(=O)N[C@@H](Cc1ccc(O)cc1)CN(CC(=O)N[C@@H](CCCCN)CN(CC(=O)N[C@@H](Cc1ccccc1)CN(CC(=O)N[C@H]1CCCCNc2c(F)c(F)c(c(F)c2F)S(=O)(=O)c2c(F)c(F)c(c(F)c2F)NCCCC[C@@H](CN(CC(=O)N[C@@H](C)CN(CC(N)=O)S(C)(=O)=O)S(C)(=O)=O)NC(=O)CN(S(=O)(=O)CC(C)C)C[C@H](Cc2ccccc2)NC(=O)CN(S(=O)(=O)CCN)C1)S(=O)(=O)c1ccc(Cl)cc1)S(=O)(=O)CCN)S(C)(=O)=O	CREB	reporter gene, inhibitor, CRE Renilla luciferase	HEK-293T	30 min, added: forskolin 10 µM for 5 h	18.9 µM
N=C(NCCCN(CCNC(=O)NCc1ccccc1)C[C@H]1O[C@@H](n2cnc3c(N)ncnc32)[C@H](O)[C@@H]1O)Nc1cccc(Br)c1	type I PRMTs	enzyme activity, inhibitor, radioactive	–	–	< 0.005 µM
COc1cc2ncnc(Nc3ccc(Oc4ccccc4)cc3C)c2cc1OC	ERK1	ATP-biotin probe binding, inhibitor, probe-labelling competition	–	–	> 10 µM
CC(=O)N[C@@H](Cc1ccc(O)cc1)CN(CC(=O)N[C@@H](CCCCN)CN(CC(=O)N[C@@H](Cc1ccccc1)CN(CC(=O)N[C@H]1CCCCNc2c(F)c(F)c(c(F)c2F)S(=O)(=O)c2c(F)c(F)c(c(F)c2F)NCCCC[C@@H](CN(CC(=O)N[C@@H](C)CN(CC(N)=O)S(C)(=O)=O)S(C)(=O)=O)NC(=O)CN(S(=O)(=O)Cc2ccccc2)C[C@H](CC(C)C)NC(=O)CN(S(=O)(=O)CCN)C1)S(=O)(=O)CC(C)C)S(=O)(=O)CCN)S(C)(=O)=O	CREB	reporter gene, inhibitor, CRE Renilla luciferase	HEK-293T	30 min, added: forskolin 10 µM for 5 h	32.5 ± 8.47 µM
CSCC[C@H](N)C(=O)N[C@@H](CO)C(=O)N[C@@H](CCC(N)=O)C(=O)N[C@@H](CO)C(=O)N[C@@H](CC(N)=O)C(=O)N[C@@H](CCCNC(=N)N)C(=O)N[C@@H](CCC(=O)O)C(=O)N[C@@H](CC(C)C)C(=O)N[C@H](C(=O)N[C@H](C(=O)N[C@@H](CC(=O)O)C(=O)N[C@@H](Cc1ccccc1)C(=O)N[C@@H](CC(C)C)C(=O)N[C@@H](CO)C(=O)N[C@@H](Cc1ccc(O)cc1)C(=O)N[C@@H](CCCCN)C(=O)N[C@@H](CC(C)C)C(=O)N[C@@H](CO)C(=O)N[C@@H](CCC(N)=O)C(=O)N[C@@H](CCCCN)C(=O)NCC(=O)N[C@@H](Cc1ccc(O)cc1)C(=O)N[C@@H](CO)C(=O)N[C@@H](Cc1c[nH]c2ccccc12)C(=O)O)C(C)C)C(C)C	IP3 receptor (mouse)	IP3-induced Ca2+ release, inhibitor, 45Ca2+ flux	permeabilized MEF cells	4 min preincubation, 30 °C, added: 3 µM IP3	> 500 µM
CC(=O)N[C@@H](Cc1ccc(O)cc1)CN(CC(=O)N[C@@H](CCCCN)CN(CC(=O)N[C@@H](Cc1ccccc1)CN(CC(=O)N[C@H]1CCCCNc2c(F)c(F)c(c(F)c2F)S(=O)(=O)c2c(F)c(F)c(c(F)c2F)NCCCC[C@@H](CN(CC(=O)N[C@@H](C)CN(CC(N)=O)S(C)(=O)=O)S(C)(=O)=O)NC(=O)CN(S(=O)(=O)c2ccccc2)C[C@H](Cc2ccccc2)NC(=O)CN(S(=O)(=O)CCN)C1)S(=O)(=O)CC(C)C)S(=O)(=O)CCN)S(C)(=O)=O	CREB	reporter gene, inhibitor, CRE Renilla luciferase	HEK-293T	30 min, added: forskolin 10 µM for 5 h	68.9 ± 25.9 µM
O=C(O)C1OC(OC2C(COS(=O)(=O)O)OC(OC3C(C(=O)O)OC(OC4C(COS(=O)(=O)O)OC(OC5C(C(=O)O)OC(OC6C(COS(=O)(=O)O)OC(OC7C(C(=O)O)OC(OC8C(COS(=O)(=O)O)OC(OC9C(C(=O)O)OC(OC%10C(COS(=O)(=O)O)OC(OC%11C(C(=O)O)OC(Oc%12ccc([N+](=O)[O-])cc%12)C(O)C%11O)C(NS(=O)(=O)O)C%10O)C(OS(=O)(=O)O)C9O)C(NS(=O)(=O)O)C8O)C(OS(=O)(=O)O)C7O)C(NS(=O)(=O)O)C6OS(=O)(=O)O)C(OS(=O)(=O)O)C5O)C(NS(=O)(=O)O)C4O)C(OS(=O)(=O)O)C3O)C(NS(=O)(=O)O)C2OS(=O)(=O)O)C(O)C(O)C1OC1OC(COS(=O)(=O)O)C(O)C(O)C1NS(=O)(=O)O (centres unmarked)	human factor Xa	anti-factor Xa activity, chromogenic	human plasma	–	0.067 µg/mL
CC(=O)N[C@@H](Cc1ccc(O)cc1)CN(CC(=O)N[C@@H](CCCCN)CN(CC(=O)N[C@@H](Cc1ccccc1)CN(CC(=O)N[C@H]1CCCCNc2c(F)c(F)c(c(F)c2F)S(=O)(=O)c2c(F)c(F)c(c(F)c2F)NCCCC[C@@H](CN(CC(=O)N[C@@H](C)CN(CC(N)=O)S(C)(=O)=O)S(C)(=O)=O)NC(=O)CN(S(=O)(=O)c2ccc(Cl)cc2)C[C@H](Cc2ccccc2)NC(=O)CN(S(=O)(=O)CCN)C1)S(=O)(=O)CC(C)C)S(=O)(=O)CCN)S(C)(=O)=O	CREB	reporter gene, inhibitor, CRE Renilla luciferase	HEK-293T	30 min, added: forskolin 10 µM for 5 h	80.3 ± 13.2 µM
N[C@@H](CCC(=O)O)C(=O)N[C@@H](CCC(=O)O)C(=O)O	PepTSt Streptococcus thermophilus wild type	peptide uptake, competitor, proteoliposome uptake	–	added: [3H]di-alanine	560 µM
COc1cc2ncnc(Nc3ccc(Oc4ccccc4)c(C)c3C)c2cc1OC	ERK1	ATP-biotin probe binding, inhibitor, probe-labelling competition	–	–	> 10 µM
CC(=O)N[C@@H](Cc1ccc(O)cc1)CN(CC(=O)N[C@@H](CCCCN)CN(CC(=O)N[C@@H](Cc1ccccc1)CN(CC(=O)N[C@H]1CCCCNc2c(F)c(F)c(c(F)c2F)S(=O)(=O)c2c(F)c(F)c(c(F)c2F)NCCCC[C@@H](CN(CC(=O)N[C@@H](C)CN(CC(N)=O)S(=O)(=O)Cc2ccccc2)S(C)(=O)=O)NC(=O)CN(S(=O)(=O)CC(C)C)C[C@H](CC(C)C)NC(=O)CN(S(=O)(=O)CCN)C1)S(=O)(=O)CC(C)C)S(=O)(=O)CCN)S(C)(=O)=O	CREB	reporter gene, inhibitor, CRE Renilla luciferase	HEK-293T	30 min, added: forskolin 10 µM for 5 h	43.1 ± 19.8 µM
Cc1cc(N2CC[C@@](C#N)(C3(C)CC3)C2=O)cc(C(=O)NCc2cc(F)cc(-c3cnn(C)c3)c2)n1	GABAA receptor	–	–	promiscuity panel	> 10 µM
CC(C)=CCN=C(N)NCCC[C@@H](NC(=O)CCCc1ccc(O)cc1)C(=O)N[C@@H](Cc1ccccc1)C(O)CC(=O)N[C@@H](Cc1ccc(O)cc1)C(=O)O (stereo in doubt)	calpain	enzyme activity	–	–	> 100 µM
O=C(O)c1ccccc1-c1c2ccc(=O)cc-2oc2cc(O)ccc12	reconstituted human ubiquitination cascade	PCNA ubiquitination, inhibitor, AlphaScreen	–	–	> 100 µM
CSCC[C@H](N)C(=O)N[C@@H](CO)C(=O)N[C@@H](CCC(N)=O)C(=O)N[C@@H](CO)C(=O)N[C@@H](CC(N)=O)C(=O)N[C@@H](CCCNC(=N)N)C(=O)N[C@@H](CCC(=O)O)C(=O)N[C@@H](CC(C)C)C(=O)N[C@H](C(=O)N[C@H](C(=O)N[C@@H](CCCCN)C(=O)N[C@@H](Cc1ccccc1)C(=O)N[C@@H](CC(C)C)C(=O)N[C@@H](CO)C(=O)N[C@@H](Cc1ccc(O)cc1)C(=O)N[C@@H](CCCCN)C(=O)N[C@@H](CC(C)C)C(=O)N[C@@H](CO)C(=O)N[C@@H](CCC(N)=O)C(=O)N[C@@H](CCCCN)C(=O)NCC(=O)N[C@@H](Cc1ccc(O)cc1)C(=O)N[C@@H](CO)C(=O)N[C@@H](Cc1c[nH]c2ccccc12)C(=O)O)C(C)C)C(C)C	IP3 receptor (mouse)	IP3-induced Ca2+ release, inhibitor, 45Ca2+ flux	permeabilized MEF cells	4 min preincubation, 30 °C, added: 3 µM IP3	60 µM
CC(C)C[C@@H](/C=C/S(C)(=O)=O)NC(=O)[C@H](CC(C)C)NC(=O)[C@@H](NC(=O)N[C@H](C(=O)OC(C)(C)C)C(C)C)C(C)C	rabbit 26S proteasome beta2	trypsin-like activity	–	30 min, 37 °C, added: Ac-RLR-AMC	> 30 µM

Excerpt of the above:
SMILES	target	assay	system	setting	IC50
COc1cc2ncnc(Nc3ccc(Oc4ccccc4)c(C)c3C)c2cc1OC	ERK1	ATP-biotin probe binding, inhibitor, probe-labelling competition	–	–	> 10 µM
CC(=O)N[C@@H](Cc1ccc(O)cc1)CN(CC(=O)N[C@@H](CCCCN)CN(CC(=O)N[C@@H](Cc1ccccc1)CN(CC(=O)N[C@H]1CCCCNc2c(F)c(F)c(c(F)c2F)S(=O)(=O)c2c(F)c(F)c(c(F)c2F)NCCCC[C@@H](CN(CC(=O)N[C@@H](C)CN(CC(N)=O)S(=O)(=O)Cc2ccccc2)S(C)(=O)=O)NC(=O)CN(S(=O)(=O)CC(C)C)C[C@H](CC(C)C)NC(=O)CN(S(=O)(=O)CCN)C1)S(=O)(=O)CC(C)C)S(=O)(=O)CCN)S(C)(=O)=O	CREB	reporter gene, inhibitor, CRE Renilla luciferase	HEK-293T	30 min, added: forskolin 10 µM for 5 h	43.1 ± 19.8 µM
